Experimental data from different studies.
Compare with care: the assays were run in different laboratories. ± gives the spread as reported.
CYP3A5: Cytochrome P450 3A5 (CYP3A5, Homo sapiens, UniProt P20815)
UniProt P20815, sequence (whole entry, looked up): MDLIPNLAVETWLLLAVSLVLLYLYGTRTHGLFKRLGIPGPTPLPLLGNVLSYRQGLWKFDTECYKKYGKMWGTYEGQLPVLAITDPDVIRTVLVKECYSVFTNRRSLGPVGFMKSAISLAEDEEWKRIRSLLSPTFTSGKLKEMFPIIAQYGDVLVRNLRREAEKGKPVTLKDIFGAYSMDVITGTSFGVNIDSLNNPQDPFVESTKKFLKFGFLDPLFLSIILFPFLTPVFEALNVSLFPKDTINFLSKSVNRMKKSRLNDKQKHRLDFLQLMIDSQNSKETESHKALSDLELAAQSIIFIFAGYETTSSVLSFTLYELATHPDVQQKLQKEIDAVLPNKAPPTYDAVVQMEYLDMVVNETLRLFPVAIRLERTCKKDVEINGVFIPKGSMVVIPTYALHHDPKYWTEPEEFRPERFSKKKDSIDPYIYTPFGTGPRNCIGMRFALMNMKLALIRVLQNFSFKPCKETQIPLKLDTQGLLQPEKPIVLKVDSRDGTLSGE
SLC22A8: Organic anion transporter 3 (SLC22A8, Homo sapiens, UniProt Q8TCC7)
UniProt Q8TCC7, sequence (whole entry, looked up): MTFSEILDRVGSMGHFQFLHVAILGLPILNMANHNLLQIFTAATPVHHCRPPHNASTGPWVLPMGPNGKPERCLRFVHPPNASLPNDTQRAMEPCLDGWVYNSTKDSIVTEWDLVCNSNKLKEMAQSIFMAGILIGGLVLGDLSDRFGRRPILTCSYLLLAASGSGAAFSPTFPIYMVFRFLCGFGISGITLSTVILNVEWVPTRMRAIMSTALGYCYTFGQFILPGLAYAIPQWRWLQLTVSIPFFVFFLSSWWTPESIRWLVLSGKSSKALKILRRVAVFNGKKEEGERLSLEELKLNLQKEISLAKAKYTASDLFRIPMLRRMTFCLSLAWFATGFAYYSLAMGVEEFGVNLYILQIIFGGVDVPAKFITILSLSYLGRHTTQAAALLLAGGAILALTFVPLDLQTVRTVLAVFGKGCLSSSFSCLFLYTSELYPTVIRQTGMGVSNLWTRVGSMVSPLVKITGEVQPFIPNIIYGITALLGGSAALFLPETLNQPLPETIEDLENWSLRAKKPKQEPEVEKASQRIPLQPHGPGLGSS
CYP3A4: Cytochrome P450 3A4 (CYP3A4, Homo sapiens, UniProt P08684)
UniProt P08684, sequence (whole entry, looked up): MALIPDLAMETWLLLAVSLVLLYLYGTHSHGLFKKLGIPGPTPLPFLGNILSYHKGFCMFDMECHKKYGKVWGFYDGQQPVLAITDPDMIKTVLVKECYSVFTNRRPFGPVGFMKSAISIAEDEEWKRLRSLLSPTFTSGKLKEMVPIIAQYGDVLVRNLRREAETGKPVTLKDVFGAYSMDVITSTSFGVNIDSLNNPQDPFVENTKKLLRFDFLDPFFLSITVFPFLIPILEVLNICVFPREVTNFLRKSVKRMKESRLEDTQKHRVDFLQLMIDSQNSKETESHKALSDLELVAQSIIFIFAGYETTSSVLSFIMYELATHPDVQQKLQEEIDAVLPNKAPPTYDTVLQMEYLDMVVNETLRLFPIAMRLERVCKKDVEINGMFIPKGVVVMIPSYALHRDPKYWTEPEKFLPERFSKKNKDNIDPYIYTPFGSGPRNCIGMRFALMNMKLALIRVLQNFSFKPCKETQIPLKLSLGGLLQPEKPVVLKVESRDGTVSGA
ALB: Albumin (ALB, Homo sapiens, UniProt P02768)
CYP2C19: Cytochrome P450 2C19 (CYP2C19, Homo sapiens, UniProt P33261)
UniProt P33261, sequence (whole entry, looked up): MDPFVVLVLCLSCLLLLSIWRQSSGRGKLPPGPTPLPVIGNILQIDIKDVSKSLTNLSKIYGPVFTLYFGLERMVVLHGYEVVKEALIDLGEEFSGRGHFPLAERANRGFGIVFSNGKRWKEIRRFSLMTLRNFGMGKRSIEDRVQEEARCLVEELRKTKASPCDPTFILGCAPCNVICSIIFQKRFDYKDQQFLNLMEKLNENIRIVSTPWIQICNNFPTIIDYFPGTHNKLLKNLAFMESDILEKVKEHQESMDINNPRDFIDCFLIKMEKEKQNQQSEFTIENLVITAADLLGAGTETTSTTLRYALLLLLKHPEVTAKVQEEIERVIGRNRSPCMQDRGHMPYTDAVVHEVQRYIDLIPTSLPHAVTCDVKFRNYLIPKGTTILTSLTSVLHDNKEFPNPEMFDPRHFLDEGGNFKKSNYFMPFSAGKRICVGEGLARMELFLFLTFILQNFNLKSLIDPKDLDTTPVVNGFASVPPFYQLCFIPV
UniProt P16662, sequence (whole entry, looked up): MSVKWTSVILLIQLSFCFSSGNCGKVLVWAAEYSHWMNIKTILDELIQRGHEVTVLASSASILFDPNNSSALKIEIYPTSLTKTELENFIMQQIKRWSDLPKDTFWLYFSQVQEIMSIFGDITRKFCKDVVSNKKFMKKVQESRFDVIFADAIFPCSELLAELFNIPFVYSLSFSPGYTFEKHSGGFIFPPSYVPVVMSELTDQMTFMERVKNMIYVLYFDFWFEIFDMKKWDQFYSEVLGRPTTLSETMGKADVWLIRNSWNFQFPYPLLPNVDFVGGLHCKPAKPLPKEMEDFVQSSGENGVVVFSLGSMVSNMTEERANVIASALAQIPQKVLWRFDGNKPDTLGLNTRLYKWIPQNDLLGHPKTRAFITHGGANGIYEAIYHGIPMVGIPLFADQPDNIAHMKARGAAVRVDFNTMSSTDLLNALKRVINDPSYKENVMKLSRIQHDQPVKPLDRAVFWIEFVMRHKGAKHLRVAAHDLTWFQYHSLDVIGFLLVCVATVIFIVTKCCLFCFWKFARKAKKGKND
UniProt P05177, sequence (whole entry, looked up): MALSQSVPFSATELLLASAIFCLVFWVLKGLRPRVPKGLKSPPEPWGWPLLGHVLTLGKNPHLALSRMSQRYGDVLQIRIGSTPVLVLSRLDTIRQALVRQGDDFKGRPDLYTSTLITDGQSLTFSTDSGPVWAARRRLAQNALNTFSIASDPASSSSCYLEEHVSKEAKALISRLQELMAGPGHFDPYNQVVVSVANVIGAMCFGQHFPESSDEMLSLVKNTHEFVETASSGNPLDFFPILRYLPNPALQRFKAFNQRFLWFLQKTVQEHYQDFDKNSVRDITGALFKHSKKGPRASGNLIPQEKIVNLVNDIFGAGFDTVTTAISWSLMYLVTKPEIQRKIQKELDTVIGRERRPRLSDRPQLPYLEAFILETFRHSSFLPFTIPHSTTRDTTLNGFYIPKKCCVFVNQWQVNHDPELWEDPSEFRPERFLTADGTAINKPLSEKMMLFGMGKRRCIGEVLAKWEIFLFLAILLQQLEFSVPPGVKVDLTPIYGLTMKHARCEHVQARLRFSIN
UniProt O95342, sequence (whole entry, looked up): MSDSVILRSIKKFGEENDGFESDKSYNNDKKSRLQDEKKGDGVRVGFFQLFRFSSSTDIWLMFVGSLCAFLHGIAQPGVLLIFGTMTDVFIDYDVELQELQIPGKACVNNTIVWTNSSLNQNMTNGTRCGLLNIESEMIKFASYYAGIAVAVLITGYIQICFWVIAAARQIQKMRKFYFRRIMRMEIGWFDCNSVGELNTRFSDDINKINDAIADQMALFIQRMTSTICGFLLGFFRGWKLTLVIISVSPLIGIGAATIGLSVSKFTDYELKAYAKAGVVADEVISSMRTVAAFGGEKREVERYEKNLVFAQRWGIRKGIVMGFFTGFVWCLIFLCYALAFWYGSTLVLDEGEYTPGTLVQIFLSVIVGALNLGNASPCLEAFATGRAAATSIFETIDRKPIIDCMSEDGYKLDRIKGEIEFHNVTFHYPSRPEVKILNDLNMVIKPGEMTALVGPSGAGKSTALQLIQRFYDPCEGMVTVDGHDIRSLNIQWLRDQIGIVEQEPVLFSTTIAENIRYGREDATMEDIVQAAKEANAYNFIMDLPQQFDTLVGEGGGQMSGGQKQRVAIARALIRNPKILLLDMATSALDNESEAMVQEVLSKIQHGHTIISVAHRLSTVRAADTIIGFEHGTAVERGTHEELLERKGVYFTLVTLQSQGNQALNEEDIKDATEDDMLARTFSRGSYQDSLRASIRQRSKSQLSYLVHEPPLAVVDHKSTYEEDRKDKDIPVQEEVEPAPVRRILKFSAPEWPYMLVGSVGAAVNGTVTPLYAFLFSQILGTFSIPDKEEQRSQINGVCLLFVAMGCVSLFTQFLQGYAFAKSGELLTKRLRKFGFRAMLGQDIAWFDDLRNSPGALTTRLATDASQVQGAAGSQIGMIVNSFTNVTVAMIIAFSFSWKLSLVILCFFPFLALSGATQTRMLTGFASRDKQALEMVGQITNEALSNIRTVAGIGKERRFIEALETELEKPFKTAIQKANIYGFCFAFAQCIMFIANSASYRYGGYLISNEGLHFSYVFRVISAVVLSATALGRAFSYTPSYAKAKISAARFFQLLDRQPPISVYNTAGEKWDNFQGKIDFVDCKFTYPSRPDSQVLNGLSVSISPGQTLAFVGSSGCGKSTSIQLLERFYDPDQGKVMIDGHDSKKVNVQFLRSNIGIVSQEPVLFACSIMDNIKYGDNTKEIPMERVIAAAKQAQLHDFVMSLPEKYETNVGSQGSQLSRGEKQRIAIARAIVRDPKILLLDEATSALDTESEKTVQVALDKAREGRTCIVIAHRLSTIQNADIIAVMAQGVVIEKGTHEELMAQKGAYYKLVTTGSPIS

Compound	target	test	system	conditions	how to read	endpoint	value
C=CC(=O)Nc1cc(Nc2nccc(-c3cn(C)c4ccccc34)n2)c(OCC(F)(F)F)nc1N(C)CCNC	CYP3A5	substrate, recombinant enzyme				formation clearance	1.52 µL/min/pmol
C[C@@H](Oc1ccc(S(C)(=O)=O)cc1C(=O)N1C[C@@H]2C[C@]2(c2cc(C(F)(F)F)on2)C1)C(F)(F)F	CYP3A5	recombinant CYP, metabolite formation	phosphate buffer	pH 7.4		CYP contribution	3.41%
O=c1[nH]c(=O)c(Cc2cccc(C(F)(F)F)c2)c([C@H]2CC[C@H](c3ccccc3)CC2)[nH]1	ABCB11 (Homo sapiens, UniProt O95342)	transport, inhibitor	inside-out membrane vesicles	together with: taurocholic acid		IC50	> 3.5 µM
CCS(=O)(=O)N1CC(CC#N)(n2cc(-c3ncnc4[nH]ccc34)cn2)C1	SLC22A8	substrate transport, inhibitor	cells expressing human OAT3	Iu 0.072 µM, together with: 3H-estrone sulfate 0.1 µM		Iu/IC50 ratio	0.009
Cc1oc2ccccc2c1Cc1cc(I)c(OCC(=O)O)c(I)c1	KCNH2 (Homo sapiens, UniProt Q12809)	ion current, activator, whole-cell patch clamp	HEK293 expressing hERG1	10 µM, external K+ 10 mM, tail at -120 mV		maximal tail current amplitude	-3.91 ± 0.38 nA
CC[C@H]1[C@@H](O)[C@@H]2[C@H](CC[C@]3(C)[C@@H]([C@H](C)CCNC(=O)NS(=O)(=O)c4ccc(C(C)(C)C)cc4)CC[C@@H]23)[C@@]2(C)CC[C@@H](O)C[C@@H]12	CYP3A4		human, plasma	10 mg, day 1, compound alone		CL/F mean	28.4 L/h
COC(=O)c1cc(C(C)=NNc2nc(-c3ccc(C#N)cc3)cs2)ccc1O	PTPN1 (Homo sapiens, UniProt P18031)	enzyme activity, inhibitor		concentration not given		duration of inhibition	~20 min
CCCC(CCC)C(=O)Oc1cccc(C(O)CCN)c1.O=CO (centres unmarked)	porcine liver esterase			99 µM, 60 min	reference: time 0 min	compound remaining	74.1%
O=C1c2ccncc2C(=O)c2c1[nH]c1ccccc21	mitochondrial complex I (human)		PAH hPASMC	1 µM, 48 h		complex I activity	no inhibition
COc1cc2nc(N3CCN(C(=O)C4COc5ccccc5O4)CC3)nc(N)c2cc1OC (centres unmarked)	Alpha-1-acid glycoprotein 1, F1/S variants (ORM1, Homo sapiens, UniProt P02763)	binding, ultrafiltration competition		37 °C, together with: [3H]tamsulosin marker		Ki	55.4 µM
NCCC(O)c1cccc(OC(=O)C2CCCCC2)c1.O=CO (centres unmarked)	porcine liver esterase			99 µM, 30 min	reference: time 0 min	compound remaining	17%
NC/C(=C\F)COc1cccc(Cn2c(=S)[nH]c(=O)c3[nH]cnc32)c1	SLC22A1 (Homo sapiens, UniProt O15245)	transport, inhibitor	CHO cells expressing SLC22A1	30 µM, together with: ASP+ substrate		inhibition	< 50%
CCC(CC)C(=O)Oc1cccc(C(O)CCN)c1.O=CO (centres unmarked)	porcine liver esterase			99 µM, 15 min	reference: time 0 min	compound remaining	80%
OC[C@H]1O[C@@H](Oc2cc3c(O)cc(O)cc3[o+]c2-c2ccc(O)cc2)[C@H](O)[C@@H](O)[C@@H]1O	ALB	binding, fluorescence quenching		pH 7, 40 °C, HSA 2 µM		Kd	82.4 ± 8.75 µM
Cn1c(=O)c2c(ncn2C)n(C)c1=O	Cytochrome P450 1A2 (CYP1A2, Homo sapiens, UniProt P05177)		human, plasma	oral, 200 mg, day 1, alone, arithmetic mean		AUC(0-inf)	33900 ng·h/mL
CCc1cc(/C(C)=N/OCc2ccc(C3CCCCC3)c(C(F)(F)F)c2)ccc1CN1CC(C(=O)O)C1	SLC22A8	transport, inhibitor	HEK293 transfected with SLC22A8	up to 24.3 µM, 5 min, together with: estrone-3-sulfate 1 µM		maximal inhibition	5.6%
O=C(O)COc1cccc(-c2nc(Nc3ccc4[nH]ncc4c3)c3ccccc3n2)c1	UGT2B7 (Homo sapiens, UniProt P16662)	enzyme activity, inhibitor	recombinant microsomes	together with: diclofenac		IC50	40.5 µM
C[C@]12CC[C@@H]3c4ccc(OS(=O)(=O)O)cc4CC[C@H]3[C@@H]1CCC2=O	SLC22A8	substrate	MDCK-II parental cells			uptake rate	0.9 pmol/min/mg protein
COc1cc(-c2[o+]c3cc(O)cc(O)c3cc2O[C@@H]2O[C@H](CO)[C@@H](O)[C@H](O)[C@H]2O)ccc1O	ALB	visible absorption spectroscopy	acetonitrile–HSA system	50 µM, pH 7, together with: HSA 200 µM		λmax	< 600 nm
COc1ccc2[nH]c([S+]([O-])Cc3ncc(C)c(OC)c3C)nc2c1 (centres unmarked)	CYP2C19	measured: 5-hydroxyomeprazole	human, plasma	oral, 20 mg omeprazole, day 1, cocktail with binimetinib and encorafenib		AUC(0-t)	1020 ng·h/mL
OC[C@H]1O[C@@H](Oc2cc3c(O)cc(O)cc3[o+]c2-c2ccc(O)c(O)c2)[C@H](O)[C@@H](O)[C@@H]1O	ALB	binding, fluorescence quenching		pH 7, 20 °C, HSA 2 µM		Kd	20.8 ± 1.6 µM
N#C[C@H](C[C@@H]1CCCNC1=O)NC(=O)[C@H](CC1CC1)NC(=O)c1cc2cccc(Cl)c2[nH]1	CYP3A5	NADPH metabolic stability		2 µM, pH 7.4, 37 °C, 100 pmol/mL enzyme		half-life	1.77 min
Cc1cc(C)c(CNC(=O)c2cc(Cl)c3c(c2C)O[C@@](C)([C@H]2CC[C@H](N(C)C)CC2)O3)c(=O)[nH]1	ALB	ultracentrifugation	4% human serum albumin solution	3000 ng/mL, 160 min		unbound fraction	0.65
C=CC(=O)N(C)CCOc1c(N)ncnc1-c1cc(F)cc(NC(=O)c2ccc(C3CC3)cc2F)c1C	CYP3A5		recombinant human CYP	pH 7.4, scaled to liver microsomes		relative unbound intrinsic clearance	3.8 µL/min/mg
COc1cc(O)c(CC=C(C)C)c(O)c1C(=O)/C=C/c1ccc(O)cc1	CYP2E1 (human)	enzyme activity, inhibitor	human liver microsomes	10 µM, pH 7.4, together with: chlorzoxazone		inhibition	< 10%
COc1ccc(F)cc1C(=O)NCc1ccc(-c2nn([C@@H](C)C(F)(F)F)c(N)c2C(N)=O)cc1	CYP3A4		human, both sexes, plasma	oral, 200 mg, single dose, together with: rifampin		Cmax	2580 ng/mL
COc1cc(O)c(CC=C(C)C)c2c1C(=O)CC(c1ccc(O)cc1)O2 (centres unmarked)	CYP2E1 (human)	enzyme activity, inhibitor	human liver microsomes	10 µM, pH 7.4, together with: chlorzoxazone		inhibition	< 10%
C=CC(=O)N1C[C@H](Nc2ncnc3[nH]ccc23)CC[C@@H]1C	CYP3A	substrate	human, plasma	oral, single dose, together with: itraconazole multiple doses		Tmax	48 min
COc1ccc2nc([S+]([O-])Cc3ncc(CO)c(OC)c3C)[nH]c2c1 (centres unmarked)	CYP2C19	CYP2C19 probe metabolite	human, plasma	oral, 20 mg omeprazole, day -7, probe cocktail alone, geometric mean		Cmax	91.8 ng/mL
